Experimental data gathered from unrelated publications.
Lines come from different studies, so protocols differ. ± gives the spread as reported.

For CC[C@H](C)[C@H](NC(=O)[C@@H](CCCNC(=N)N)NC(=O)[C@H](CCCNC(=N)N)NC(=O)[C@H](CC(C)C)NC(=O)[C@H](Cc1c[nH]c2ccccc12)NC(=O)[C@H](CCCNC(=N)N)NC(=O)[C@@H]1CCCN1C(=O)[C@H](CCCNC(=N)N)NC(=O)[C@@H]1CCCN1C(=O)[C@H](CC(C)C)NC(=O)[C@H](Cc1ccc(O)cc1)NC(=O)[C@@H]1CCCN1C(=O)[C@@H]1CCCN1C(=O)[C@H](CCCCN)NC(=O)[C@H](CC(=O)O)NC(=O)[C@@H](N)C(C)C)C(=O)N[C@@H](Cc1ccc(O)cc1)C(=O)N[C@@H](CC(N)=O)C(=O)N[C@H](CCCNC(=N)N)C(N)=O, the MIC was 32 µg/mL (Escherichia coli; broth microdilution; MC4100; 18 h, 37 °C, 25% MHB2).
C#CCNC(=O)[C@H](CCCNC(=N)N)NC(=O)[C@@H]1CCCN1C(=O)[C@@H]1CCCN1C(=O)[C@H](CCCNC(=N)N)NC(=O)[C@@H]1CCCN1C(=O)[C@H](CCCNC(=N)N)NC(=O)[C@@H]1CCCN1C(=O)[C@H](CC(C)C)NC(=O)[C@H](Cc1ccc(O)cc1)NC(=O)[C@@H]1CCCN1C(=O)[C@@H]1CCCN1C(=O)[C@H](CCCCN)NC(=O)[C@H](CC(=O)O)NC(=O)[C@@H](N)C(C)C gave an MIC of 32 µg/mL (Escherichia coli; broth microdilution; MRE600; 16 h, 37 °C, 25% Mueller-Hinton broth).
With CCCCCCCC(=O)N[C@@H](CCN)C(=O)N[C@H](C(=O)N[C@@H](CCN)C(=O)N[C@H]1CCNC(=O)[C@H]([C@@H](C)O)NC(=O)[C@H](CCN)NC(=O)[C@H](CCN)NC(=O)[C@H](CCC(C)C)NC(=O)[C@@H](Cc2ccccc2)NC(=O)[C@H](CCN)NC1=O)[C@@H](C)O the MIC was less than 0.125 µg/mL (Escherichia coli; broth microdilution; ATCC 25922, colistin-susceptible).
O=C1NC2(CC2)COc2ncc(F)cc2[C@H]2COCCN2c2ccn3ncc1c3n2 has an organ weight of 1.35 ± 0.228 g (Sprague-Dawley rat, female, heart; oral, 20 mg/kg/day, 4 weeks).
The MIC of CC[C@H](C)[C@H](NC(=O)[C@@H](NC(=O)[C@H](CCCCN)NC(=O)[C@H](CCCCN)NC(=O)[C@@H](NC(=O)[C@H](Cc1c[nH]c2ccccc12)NC(=O)[C@H](CCCCN)NC(=O)[C@@H](NC(=O)[C@H](CC(C)C)NC(=O)[C@H](CCCCN)NC(=O)[C@H](CCCCN)NC(=O)[C@@H](N)C(C)C)[C@@H](C)CC)[C@@H](C)CC)C(C)C)C(N)=O is reported as 32 µM (Escherichia coli; 24 h, 37 °C, Mueller-Hinton broth, FeCl3 4 µM).
CCn1c(-c2ccc(F)cc2)c(-c2ccc(F)cc2)n(Cc2ccccc2)c1=[Se] has an MIC of greater than 40 µM (Escherichia coli; broth microdilution; carbapenem-resistant BAA-2140; 24 h).
For CC[C@H](C)[C@H](NC(=O)[C@@H](CCCNC(=N)N)NC(=O)[C@H](CCCNC(=N)N)NC(=O)[C@@H]1CCCN1C(=O)[C@@H]1CCCN1C(=O)[C@H](CCCNC(=N)N)NC(=O)[C@H](Cc1c[nH]c2ccccc12)NC(=O)[C@H](CCCNC(=N)N)NC(=O)[C@@H]1CCCN1C(=O)[C@H](CC(C)C)NC(=O)[C@H](Cc1ccc(O)cc1)NC(=O)[C@@H]1CCCN1C(=O)[C@@H]1CCCN1C(=O)[C@H](CCCCN)NC(=O)[C@H](CC(=O)O)NC(=O)[C@@H](N)C(C)C)C(=O)N[C@@H](Cc1ccc(O)cc1)C(=O)N[C@@H](CC(N)=O)C(=O)N[C@H](CCCNC(=N)N)C(N)=O, the MIC was 8 µg/mL (Escherichia coli; broth microdilution; ATCC 25922; 18 h, 37 °C, 25% MHB2).
For CC(C)C[C@@H]1NC(=O)[C@H](CCCCN)NC(=O)CNC(=O)[C@H]2CCCN2C(=O)[C@H](CCCCN)NC(=O)[C@H](CC(C)C)NC(=O)[C@H](CCCCN)NC(=O)C2CCC=CCCCC(NC(=O)[C@H](CCCCN)NC1=O)C(=O)N[C@@H](CCCCN)C(=O)NC(C(N)=O)CCCC=CCCC(N)C(=O)N[C@@H](CCCCN)C(=O)N2 (some centres unmarked), the MIC was 64 µM (Escherichia coli; broth microdilution; ATCC 25922, Mueller-Hinton broth; 18 h, 37 °C).
The MIC of CC(=CC(C)CCCCC(=O)O)C1OC2C=CC1OC(=O)C=CC=CC=CC1OC3CC1OC(C=CCC1OC(CC(O)C1C)C(O)C(O)C=CCCC=CC2)C3C (centres unmarked) is reported as 3.13 µM (Escherichia coli; microbial growth; DSM1116).
The MIC of CC[C@H](C)[C@H](NC(=O)[C@@H](CCCNC(=N)N)NC(=O)[C@H](CCCNC(=N)N)NC(=O)[C@@H]1CCCN1C(=O)[C@@H]1CCCN1C(=O)[C@H](CCCNC(=N)N)NC(=O)[C@@H]1CCCN1C(=O)[C@H](CCCNC(=N)N)NC(=O)[C@@H]1CCCN1C(=O)[C@H](CC(C)C)NC(=O)[C@H](Cc1c[nH]c2ccccc12)NC(=O)[C@@H]1CCCN1C(=O)[C@@H]1CCCN1C(=O)[C@H](CCCCN)NC(=O)[C@H](CC(=O)O)NC(=O)[C@@H](N)C(C)C)C(=O)N[C@@H](Cc1ccc(O)cc1)C(=O)N[C@@H](CC(N)=O)C(=O)N[C@H](CCCNC(=N)N)C(N)=O is reported as 4 µg/mL (Escherichia coli; broth microdilution; MC4100; 18 h, 37 °C, 25% MHB2).
With CO[C@@H](C(N)=O)[C@H](NC(=O)c1ccc(NC(=O)[C@@H](N)Cc2ccc(O)cc2)cc1)C(=O)Nc1ccc(C(=O)Nc2ccc(C(=O)Nc3ccc(C(=O)O)cc3)c(O)c2OC(C)C)cc1 the MIC was 1 µg/mL (Escherichia coli; empty cosmid vector; 16 h, 37 °C).
The MIC of OB(O)c1cnn(-c2cccc(Cl)c2)c1 is reported as greater than 2050 µg/mL (Escherichia coli; bacterial growth; CTX-M-14 ESBL clinical isolate; without cefotaxime).
The MIC of CC(C)C[C@H](NC(=O)[C@@H](NC(=O)[C@H](CCCCN)NC(=O)[C@H](CCCCN)NC(=O)[C@H](CC(C)C)NC(=O)[C@H](Cc1c[nH]c2ccccc12)NC(=O)[C@H](CCCCN)NC(=O)[C@H](CC(C)C)NC(=O)[C@H](CC(C)C)NC(=O)[C@H](CCCCN)NC(=O)[C@H](CCCCN)NC(=O)[C@@H](N)C(C)C)C(C)C)C(N)=O is reported as 64 µM (Escherichia coli; 24 h, 37 °C, Mueller-Hinton broth, CaCl2 2.5 mM).
CC1(C)[C@H](NC(=O)/C(=N\OC2(C(=O)O)CCCCC2)c2csc(N)n2)C(=O)N1OS(=O)(=O)O gave an MIC of 2 µg/mL (Escherichia coli; agar dilution; 08-85, mcr-1).
The MIC of CCCCCCCCCCCCCC(=O)N[C@@H](Cc1c[nH]c2ccccc12)C(=O)N[C@@H](Cc1c[nH]c2ccccc12)C(=O)N[C@H](C(=O)N[C@@H](Cc1ccccc1)C(=O)N[C@@H](CCCNC(=N)N)C(=O)N[C@H](C(=O)N[C@H](C(=O)N[C@@H](Cc1ccc(O)cc1)C(=O)N1CCC[C@@H]1C(=O)N[C@@H](CCCNC(=N)N)C(=O)N[C@H](C(=O)N[C@H](C(=O)N[C@@H](Cc1ccc(O)cc1)C(=O)N[C@@H](CCCNC(=N)N)C(=O)N[C@@H](CCCNC(=N)N)C(=O)N[C@H](C(=O)N[C@@H](CCCNC(=N)N)C(=O)N[C@@H](Cc1c[nH]c2ccccc12)C(=O)N[C@H](C(=O)NCC(=O)N1CCC[C@H]1C(=O)N[C@@H](CCCCN)C(=O)N[C@@H](CCCCN)C(N)=O)[C@@H](C)O)C(C)C)C(C)C)[C@@H](C)CC)C(C)C)C(C)C)C(C)C is reported as greater than 100 µM (Escherichia coli; bacterial growth, broth dilution, OD600; DH5α, LB medium; 16 h, 37 °C).
With O=C(O)c1ncsc1NS(=O)(=O)c1cccnc1 the MIC was greater than 2000 µM (Escherichia coli; NDM-1 producing; compound alone).
CC[C@H](C)[C@H](NC(=O)[C@@H](CCCNC(=N)N)NC(=O)[C@H](CCCNC(=N)N)NC(=O)[C@@H]1CCCN1C(=O)[C@@H]1CCCN1C(=O)[C@H](CCCNC(=N)N)NC(=O)[C@@H]1CCCN1C(=O)[C@H](CCCNC(=N)N)NC(=O)[C@@H]1CCCN1C(=O)[C@H](CC(C)C)NC(=O)[C@H](Cc1ccc(O)cc1)NC(=O)[C@@H]1CCCN1C(=O)[C@@H]1CCCN1C(=O)[C@H](CCCCN)NC(=O)[C@H](Cc1c[nH]c2ccccc12)NC(=O)[C@@H](N)C(C)C)C(=O)N[C@@H](Cc1ccc(O)cc1)C(=O)N[C@@H](CC(N)=O)C(=O)N[C@H](CCCNC(=N)N)C(N)=O gave an MIC of 8 µg/mL (Escherichia coli; broth microdilution; MC4100; 18 h, 37 °C, 25% MHB2).
With CC(C)C[C@@H](NC(=O)[C@@H](CCCNC(=N)N)NC(=O)[C@H](N)CCCNC(=N)N)C(=O)N[C@H](CC(C)C)C(=O)N[C@H](CCCNC(=N)N)C(=O)N[C@H](CCCCN)C(=O)N[C@H](CC(C)C)C(=O)N[C@H](CCCCN)C(=O)NCC(=O)N[C@H](CCCCN)C(=O)N[C@H](CCCCN)C(=O)N[C@H](CC(C)C)C(=O)N[C@H](Cc1ccc(O)cc1)C(=O)N[C@H](CC(C)C)C(=O)N[C@H](Cc1ccc(O)cc1)C(=O)N[C@H](Cc1ccccc1)C(=O)N[C@H](CCCCN)C(=O)N[C@H](CC(C)C)C(=O)N[C@H](CCC(N)=O)C(=O)N[C@H](CC(C)C)C(=O)N[C@H](CC(C)C)C(=O)N[C@H](CCCCN)C(=O)N[C@H](CCCCN)C(N)=O the MIC was 16 µM (Escherichia coli; KCTC 1682, Mueller-Hinton broth; together with: 150 mM NaCl).
CC[C@H](C)[C@H](NC(=O)[C@@H](CCCNC(=N)N)NC(=O)[C@H](CCCNC(=N)N)NC(=O)[C@@H]1CCCN1C(=O)[C@@H]1CCCN1C(=O)[C@H](CCCNC(=N)N)NC(=O)[C@@H]1CCCN1C(=O)[C@H](CCCNC(=N)N)NC(=O)[C@@H]1CCCN1C(=O)[C@H](CC(C)C)NC(=O)[C@H](Cc1ccc(O)cc1)NC(=O)[C@@H]1CCCN1C(=O)[C@@H]1CCCN1C(=O)[C@H](CCCCN)NC(=O)[C@H](CC(=O)O)NC(=O)[C@@H](N)C(C)C)C(=O)N[C@@H](Cc1cc(I)c(O)c(I)c1)C(=O)N[C@@H](CC(N)=O)C(=O)N[C@H](CCCNC(=N)N)C(N)=O has an MIC of 16 µg/mL (Escherichia coli; broth microdilution; ATCC 25922; 18 h, 37 °C, 25% MHB2).
With CC(C)[C@H](NC(=O)[C@H](Cc1ccc(O)cc1)NC(=O)[C@H](CS)NC(=O)[C@@H](NC(=O)[C@H](CCCNC(=N)N)NC(=O)[C@H](Cc1ccccc1)NC(=O)[C@H](CS)NC(=O)[C@H](Cc1c[nH]c2ccccc12)NC(=O)[C@@H](N)CCCNC(=N)N)C(C)C)C(=O)NCC(=O)N[C@@H](Cc1ccccc1)C(=O)N[C@@H](CS)C(=O)N[C@@H](Cc1ccc(O)cc1)C(=O)N[C@@H](Cc1c[nH]c2ccccc12)C(=O)N[C@@H](CCCCN)C(=O)N[C@@H](CS)C(=O)N[C@@H](CCCNC(=N)N)C(=O)O the MIC was 17.6 µg/mL (Escherichia coli; broth microdilution; ATCC 25922, Mueller-Hinton broth; 16 to 20 h, 37 °C).

Some of these lines once more:
The MIC of OB(O)c1cnn(-c2cccc(Cl)c2)c1 is reported as greater than 2050 µg/mL (Escherichia coli; bacterial growth; CTX-M-14 ESBL clinical isolate; without cefotaxime).
